Assay results pooled from the literature.
Protocols differ between the studies behind these lines. ± gives the spread as reported.
SMARCA4: SWI/SNF-related matrix-associated actin-dependent regulator of chromatin subfamily A member 4 (SMARCA4, Homo sapiens, UniProt P51532)
UniProt O43613, sequence (whole entry, looked up): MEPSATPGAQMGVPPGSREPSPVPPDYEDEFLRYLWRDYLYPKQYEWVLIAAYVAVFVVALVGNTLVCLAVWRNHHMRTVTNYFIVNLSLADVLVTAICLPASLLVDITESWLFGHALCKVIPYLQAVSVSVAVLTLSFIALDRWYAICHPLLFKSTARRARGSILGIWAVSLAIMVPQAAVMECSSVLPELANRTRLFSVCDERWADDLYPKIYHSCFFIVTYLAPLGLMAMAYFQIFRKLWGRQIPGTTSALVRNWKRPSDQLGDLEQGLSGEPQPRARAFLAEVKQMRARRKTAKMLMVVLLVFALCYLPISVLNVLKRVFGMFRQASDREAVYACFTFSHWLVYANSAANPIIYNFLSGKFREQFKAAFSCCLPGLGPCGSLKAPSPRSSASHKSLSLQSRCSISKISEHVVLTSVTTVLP
UniProt P21127, sequence (whole entry, looked up): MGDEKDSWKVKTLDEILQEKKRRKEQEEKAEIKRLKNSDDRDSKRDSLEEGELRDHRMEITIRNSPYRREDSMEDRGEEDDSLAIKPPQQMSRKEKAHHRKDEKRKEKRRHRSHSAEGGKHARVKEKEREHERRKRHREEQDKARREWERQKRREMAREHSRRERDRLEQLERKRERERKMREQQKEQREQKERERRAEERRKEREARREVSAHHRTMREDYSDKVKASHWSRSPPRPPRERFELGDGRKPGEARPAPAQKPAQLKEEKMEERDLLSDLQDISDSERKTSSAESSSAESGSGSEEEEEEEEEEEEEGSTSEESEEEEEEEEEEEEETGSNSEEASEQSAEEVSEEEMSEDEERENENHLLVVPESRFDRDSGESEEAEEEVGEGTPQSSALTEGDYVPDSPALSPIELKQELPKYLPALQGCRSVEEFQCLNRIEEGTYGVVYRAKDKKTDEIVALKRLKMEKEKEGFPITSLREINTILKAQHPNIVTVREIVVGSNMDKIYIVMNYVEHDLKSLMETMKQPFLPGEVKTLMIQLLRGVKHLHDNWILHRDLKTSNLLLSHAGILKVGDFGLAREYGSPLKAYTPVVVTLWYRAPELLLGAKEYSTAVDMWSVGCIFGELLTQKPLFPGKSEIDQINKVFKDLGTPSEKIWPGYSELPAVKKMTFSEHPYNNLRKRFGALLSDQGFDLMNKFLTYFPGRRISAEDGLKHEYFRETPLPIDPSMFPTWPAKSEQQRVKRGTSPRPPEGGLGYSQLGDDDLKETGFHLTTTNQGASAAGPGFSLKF
UniProt Q92843, sequence (whole entry, looked up): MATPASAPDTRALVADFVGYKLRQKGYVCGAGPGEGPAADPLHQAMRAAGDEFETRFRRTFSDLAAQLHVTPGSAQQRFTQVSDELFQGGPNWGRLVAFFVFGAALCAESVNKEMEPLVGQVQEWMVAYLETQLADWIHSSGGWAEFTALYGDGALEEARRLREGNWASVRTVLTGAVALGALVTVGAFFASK
UniProt P50750, sequence (whole entry, looked up): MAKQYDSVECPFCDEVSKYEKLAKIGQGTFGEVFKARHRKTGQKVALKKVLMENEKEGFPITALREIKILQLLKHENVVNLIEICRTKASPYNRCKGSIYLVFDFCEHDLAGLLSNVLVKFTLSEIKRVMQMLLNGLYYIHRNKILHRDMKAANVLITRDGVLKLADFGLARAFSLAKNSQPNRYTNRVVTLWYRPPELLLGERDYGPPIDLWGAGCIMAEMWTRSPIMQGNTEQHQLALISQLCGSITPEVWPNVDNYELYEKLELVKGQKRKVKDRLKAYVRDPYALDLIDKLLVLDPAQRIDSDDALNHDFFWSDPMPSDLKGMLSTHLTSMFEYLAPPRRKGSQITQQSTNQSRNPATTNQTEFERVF
UniProt P35372, sequence (whole entry, looked up): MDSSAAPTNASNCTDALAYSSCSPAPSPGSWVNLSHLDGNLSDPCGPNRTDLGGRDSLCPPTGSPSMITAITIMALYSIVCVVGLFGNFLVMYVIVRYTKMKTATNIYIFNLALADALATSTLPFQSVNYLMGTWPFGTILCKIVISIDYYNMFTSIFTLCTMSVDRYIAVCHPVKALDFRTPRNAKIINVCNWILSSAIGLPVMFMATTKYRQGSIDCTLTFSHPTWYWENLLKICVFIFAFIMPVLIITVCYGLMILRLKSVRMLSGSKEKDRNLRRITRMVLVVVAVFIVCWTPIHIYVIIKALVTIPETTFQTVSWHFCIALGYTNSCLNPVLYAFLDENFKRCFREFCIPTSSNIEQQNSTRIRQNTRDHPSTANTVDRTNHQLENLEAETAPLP
UniProt O75417, sequence (whole entry, unmodified, looked up): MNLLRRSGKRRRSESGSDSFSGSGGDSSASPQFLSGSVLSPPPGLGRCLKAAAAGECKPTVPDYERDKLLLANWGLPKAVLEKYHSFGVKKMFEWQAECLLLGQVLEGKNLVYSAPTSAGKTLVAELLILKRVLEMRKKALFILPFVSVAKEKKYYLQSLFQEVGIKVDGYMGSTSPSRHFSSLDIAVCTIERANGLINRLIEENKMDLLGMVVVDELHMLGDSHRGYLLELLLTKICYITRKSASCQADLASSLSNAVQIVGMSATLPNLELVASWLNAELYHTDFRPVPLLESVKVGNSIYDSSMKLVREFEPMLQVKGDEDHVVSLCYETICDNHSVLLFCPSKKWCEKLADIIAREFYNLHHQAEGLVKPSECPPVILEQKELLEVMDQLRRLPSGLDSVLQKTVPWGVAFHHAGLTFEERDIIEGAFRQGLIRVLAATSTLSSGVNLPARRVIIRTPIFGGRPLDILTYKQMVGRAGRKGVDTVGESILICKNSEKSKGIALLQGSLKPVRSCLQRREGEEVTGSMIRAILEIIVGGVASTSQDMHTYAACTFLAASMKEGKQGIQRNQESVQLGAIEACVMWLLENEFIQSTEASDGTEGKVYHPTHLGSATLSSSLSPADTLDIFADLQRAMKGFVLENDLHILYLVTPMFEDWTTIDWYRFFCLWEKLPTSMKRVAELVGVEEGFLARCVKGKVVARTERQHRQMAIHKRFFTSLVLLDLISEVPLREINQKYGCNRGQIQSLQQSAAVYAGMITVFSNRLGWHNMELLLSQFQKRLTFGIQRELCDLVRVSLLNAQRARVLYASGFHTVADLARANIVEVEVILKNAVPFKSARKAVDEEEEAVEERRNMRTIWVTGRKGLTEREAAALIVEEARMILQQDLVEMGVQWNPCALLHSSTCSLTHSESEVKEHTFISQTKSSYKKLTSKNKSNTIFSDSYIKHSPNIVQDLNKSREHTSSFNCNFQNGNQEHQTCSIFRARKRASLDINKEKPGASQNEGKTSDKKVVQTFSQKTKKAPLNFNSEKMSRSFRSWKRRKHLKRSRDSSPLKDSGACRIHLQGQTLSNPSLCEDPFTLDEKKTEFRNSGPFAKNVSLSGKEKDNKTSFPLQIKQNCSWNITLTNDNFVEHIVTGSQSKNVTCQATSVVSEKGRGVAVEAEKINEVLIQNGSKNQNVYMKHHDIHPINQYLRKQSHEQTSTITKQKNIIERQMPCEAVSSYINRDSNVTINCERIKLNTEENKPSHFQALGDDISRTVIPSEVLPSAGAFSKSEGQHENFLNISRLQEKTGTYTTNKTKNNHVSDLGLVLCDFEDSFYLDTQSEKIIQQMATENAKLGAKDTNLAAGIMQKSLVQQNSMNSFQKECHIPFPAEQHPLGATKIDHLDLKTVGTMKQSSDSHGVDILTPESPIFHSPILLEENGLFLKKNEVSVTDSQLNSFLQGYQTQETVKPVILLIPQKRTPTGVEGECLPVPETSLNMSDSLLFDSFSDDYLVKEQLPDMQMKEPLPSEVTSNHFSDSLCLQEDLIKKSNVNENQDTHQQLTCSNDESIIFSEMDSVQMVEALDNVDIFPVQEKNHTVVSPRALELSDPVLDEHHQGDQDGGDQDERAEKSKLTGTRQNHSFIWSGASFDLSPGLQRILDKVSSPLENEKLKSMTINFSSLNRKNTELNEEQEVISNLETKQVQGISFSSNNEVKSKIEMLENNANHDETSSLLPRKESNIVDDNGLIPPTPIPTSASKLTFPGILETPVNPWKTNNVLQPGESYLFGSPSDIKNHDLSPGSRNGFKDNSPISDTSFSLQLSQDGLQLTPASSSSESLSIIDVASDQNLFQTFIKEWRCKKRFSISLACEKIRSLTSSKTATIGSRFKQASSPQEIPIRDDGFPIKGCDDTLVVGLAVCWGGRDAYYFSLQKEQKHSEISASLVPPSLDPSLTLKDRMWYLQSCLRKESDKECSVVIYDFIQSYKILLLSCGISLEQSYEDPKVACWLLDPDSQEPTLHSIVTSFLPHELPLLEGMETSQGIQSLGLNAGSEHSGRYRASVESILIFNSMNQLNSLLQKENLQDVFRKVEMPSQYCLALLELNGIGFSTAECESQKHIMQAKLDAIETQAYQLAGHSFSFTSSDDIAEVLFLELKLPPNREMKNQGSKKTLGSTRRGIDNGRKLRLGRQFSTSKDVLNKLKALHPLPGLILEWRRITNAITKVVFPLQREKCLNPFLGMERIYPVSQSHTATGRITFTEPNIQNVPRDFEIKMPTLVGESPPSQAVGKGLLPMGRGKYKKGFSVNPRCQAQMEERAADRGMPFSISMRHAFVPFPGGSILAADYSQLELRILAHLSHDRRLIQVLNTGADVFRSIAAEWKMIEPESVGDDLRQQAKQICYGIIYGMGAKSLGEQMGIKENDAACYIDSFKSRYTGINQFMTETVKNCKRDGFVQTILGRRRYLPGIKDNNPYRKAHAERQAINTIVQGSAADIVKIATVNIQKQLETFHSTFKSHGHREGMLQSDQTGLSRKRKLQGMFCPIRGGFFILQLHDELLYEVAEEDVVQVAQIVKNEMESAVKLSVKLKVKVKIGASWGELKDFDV

Molecule	tested on	test	system	setting	endpoint	value
C#Cc1cccc(Nc2ncnc3cc(OCCOC)c(OCCOC)cc23)c1	PC-3	MTT		6.25 µg/mL, RPMI medium with 2% serum	viability	10.7%
Cc1cc2c(cc1N1C(=O)c3cccc4c(Cl)ccc(c34)C1=O)n(C)c(=O)n2C	SMARCA4			10 µM	delta Tm	0 °C
NS(=O)(=O)c1ccc(Nc2nc(-c3ccc(F)cc3)c3ccccc3n2)cc1	SMARCA4	enzyme activity, inhibitor		1 µM	remaining activity	89%
orexin-A	HCRTR1 (Homo sapiens, UniProt O43613)	calcium signalling, agonist, FLIPR Tetra	CHO expressing HCRTR1		EC75	0.1 nM
cyclic GMP-AMP	Bromodomain-containing protein 4, BD1 (BRD4, Homo sapiens, UniProt O60885)	binding, thermal shift		100 µM, BD1 domain	ΔTm	-0.48 ± 0.5 °C
Cc1cc(C)c(/C=C2\C(=O)Nc3ccccc32)[nH]1	DNA polymerase theta, ATPase domain (POLQ, Homo sapiens, UniProt O75417)	enzyme activity		77 µM	remaining activity	104%
CC[C@@H]1C(=O)N(C)c2cnc(Nc3ccc(C(=O)NC4CCN(C)CC4)cc3OC)nc2N1C1CCCC1	BPTF (Homo sapiens, UniProt Q12830)	thermal stabilisation, thermal shift		10 µM	ΔTm	-0.15 ± 0.88 °C
Cc1c(O)cc2oc3c(c(=O)c2c1O)-c1ccccc1OC3O (stereo not drawn)	Cyclin-dependent kinase 9, with cyclin K (CDK9, Homo sapiens, UniProt P50750)			10 µM	inhibition	20 to 30%
Cc1c(C(=O)NN2CCCCC2)nn(-c2ccc(Cl)cc2Cl)c1-c1ccc(Cl)cc1	OPRM1 (Homo sapiens, UniProt P35372)		CHO cells	10 µM, with: forskolin	cAMP level	no effect
CC[C@H](C)[C@H](NC(=O)[C@H](CCC(=O)O)NC(=O)[C@H](CC(=O)O)NC(=O)CNC(=O)[C@H](CC(C)C)NC(=O)[C@H](CCCNC(=N)N)NC(=O)[C@H](CCCNC(=N)N)NC(=O)[C@H](CC(C)C)NC(=O)CNC(=O)[C@H](CCC(N)=O)NC(=O)[C@@H](NC(=O)[C@H](CCSC)NC(=O)[C@H](Cc1c[nH]c2ccccc12)NC(=O)[C@@H](NC(=O)[C@H](CCC(=O)O)NC(=O)[C@@H]1CCCN1C(=O)[C@H](CCCNC(=N)N)NC(C)=O)[C@@H](C)CC)[C@@H](C)O)C(=O)N[C@@H](CC(N)=O)C(=O)N[C@@H](C)C(=O)N[C@@H](Cc1ccc(O)cc1)C(=O)N[C@@H](Cc1ccc(O)cc1)C(=O)N[C@@H](C)C(=O)N[C@@H](CCCNC(=N)N)C(N)=O	BCL2L2 (Homo sapiens, UniProt Q92843)	fluorescence polarization competition		2 h, 25 °C, with: 25 nM fluorescein-Bim	Ki	990 nM
N#Cc1ccc(-c2csc(CNC(=O)C34CC(CN(C(=O)COCCF)C3)C4)n2)cc1			Sprague Dawley rats male, plasma	intravenous, 1 mg/kg	unbound hepatic CLint	56 mL/min/kg
CNc1ncc2c(/C=C/C(=O)N3CCC(OC)CC3)nn(Cc3cccc(C(F)(F)F)c3)c2n1	Cyclin-dependent kinase 11B, with cyclin K (CDK11B, Homo sapiens, UniProt P21127)			1 µM	remaining activity	112%
